# Measurements from different studies.
# Lines come from different studies, so protocols differ.
# IRF5 K96S/S451D/S453D/S456D/S462D full length, phosphomimetic: Interferon regulatory factor 5, full length, phosphomimetic (IRF5, Homo sapiens, UniProt Q13568-2, residues 1-514, K96S/S451D/S453D/S456D/S462D)
# UniProt Q9Y261, sequence (142-269, looked up): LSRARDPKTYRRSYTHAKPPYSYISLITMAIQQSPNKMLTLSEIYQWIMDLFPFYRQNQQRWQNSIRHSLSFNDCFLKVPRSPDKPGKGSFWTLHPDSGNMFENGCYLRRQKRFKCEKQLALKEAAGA
# UniProt P14921, sequence (whole entry, unmodified, looked up): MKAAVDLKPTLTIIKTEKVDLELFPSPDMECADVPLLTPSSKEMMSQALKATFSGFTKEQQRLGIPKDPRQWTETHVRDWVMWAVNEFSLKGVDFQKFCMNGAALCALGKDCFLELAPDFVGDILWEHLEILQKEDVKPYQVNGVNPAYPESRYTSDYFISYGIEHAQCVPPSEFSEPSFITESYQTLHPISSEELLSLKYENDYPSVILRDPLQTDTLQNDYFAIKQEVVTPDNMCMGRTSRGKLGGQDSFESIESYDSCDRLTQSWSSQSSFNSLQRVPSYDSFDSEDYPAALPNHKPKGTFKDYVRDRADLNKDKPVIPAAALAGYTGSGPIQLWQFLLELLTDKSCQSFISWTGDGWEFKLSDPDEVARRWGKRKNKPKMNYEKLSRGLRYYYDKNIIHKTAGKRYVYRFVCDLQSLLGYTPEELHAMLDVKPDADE
# UniProt Q9UJQ4, sequence (whole entry, looked up): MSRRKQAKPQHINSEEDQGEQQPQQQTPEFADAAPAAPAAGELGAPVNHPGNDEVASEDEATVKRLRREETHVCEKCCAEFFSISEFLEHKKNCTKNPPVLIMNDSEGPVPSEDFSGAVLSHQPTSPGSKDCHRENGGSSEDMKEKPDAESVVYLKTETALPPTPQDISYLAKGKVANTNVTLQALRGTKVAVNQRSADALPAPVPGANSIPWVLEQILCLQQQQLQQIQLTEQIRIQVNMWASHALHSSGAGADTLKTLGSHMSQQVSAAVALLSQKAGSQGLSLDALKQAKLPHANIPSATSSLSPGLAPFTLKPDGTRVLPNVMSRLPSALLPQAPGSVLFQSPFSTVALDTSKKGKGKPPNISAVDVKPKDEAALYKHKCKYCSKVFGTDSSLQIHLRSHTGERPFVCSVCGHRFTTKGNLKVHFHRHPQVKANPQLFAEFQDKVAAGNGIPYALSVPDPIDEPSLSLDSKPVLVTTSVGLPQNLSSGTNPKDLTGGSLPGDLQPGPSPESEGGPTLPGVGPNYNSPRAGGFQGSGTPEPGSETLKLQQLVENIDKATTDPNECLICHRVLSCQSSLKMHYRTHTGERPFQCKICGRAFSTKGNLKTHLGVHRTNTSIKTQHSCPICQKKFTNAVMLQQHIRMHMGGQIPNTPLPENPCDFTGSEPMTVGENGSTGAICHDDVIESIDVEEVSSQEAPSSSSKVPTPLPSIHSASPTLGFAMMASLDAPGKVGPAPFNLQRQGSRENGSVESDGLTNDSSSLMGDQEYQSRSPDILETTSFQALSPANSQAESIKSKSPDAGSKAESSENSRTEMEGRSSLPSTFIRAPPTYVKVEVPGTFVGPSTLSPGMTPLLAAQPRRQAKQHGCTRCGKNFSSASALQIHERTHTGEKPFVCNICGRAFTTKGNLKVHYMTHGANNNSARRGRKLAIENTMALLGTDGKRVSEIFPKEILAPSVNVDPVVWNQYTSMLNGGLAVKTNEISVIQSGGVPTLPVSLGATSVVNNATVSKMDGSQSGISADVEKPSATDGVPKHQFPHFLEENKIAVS
Substance,target,assay,test system,setting,scale,quantity,value
GCCTAGCACTCAACTTCTCTTTTGGCACTGTGCTAGGTCTTGATTCGCTTGACGCTGCTG,"IRF5 K96S/S451D/S453D/S456D/S462D full length, phosphomimetic",protein-binding microarray,"double-stranded DNA, one strand shown, in vitro","250 nM, 60-bp whole probe, together with: salmon DNA 0.4 mg/ml","baseline: random background probes, higher = stronger binding",log fluorescence,1.04 z-score
GTTACTAA,"Hepatocyte nuclear factor 3-beta, forkhead domain (FOXA2, Homo sapiens, UniProt Q9Y261, residues 142-269)",protein-binding microarray,"double-stranded DNA, one strand shown, in vitro","not given, k-mer, scored over probes, only values ≥0.25",higher = stronger binding,E-score,0.279
CCGGCCAG,"Histone acetyltransferase KAT6A, winged helix 2, GST fusion (KAT6A, Homo sapiens, UniProt Q92794, residues 85-181)",protein binding microarray,"double-stranded DNA, one strand shown, in vitro","not given, 8-mer, flanks averaged, mean of 2 arrays, mostly near background","baseline: not given, higher = stronger binding",E-score,0.139
"PhoQ, residues 284 288 289 292 302 303 WVSSAF","PhoP, residues 12 14 15 18 19 NYFTV (Escherichia coli, UniProt P23836)","Sort-seq, refers to: YFP reporter",E. coli,"PhoQ-PhoP variant library, together with: 10 µM Mg2+","baseline: high Mg2+ state, higher = stronger signaling",fold induction,16.2
GCCTAGCACTGGGATTTTCCCATGAGTCTGTGCTAGGTCTTGATTCGCTTGACGCTGCTG,"IRF5 K96S/S451D/S453D/S456D/S462D full length, phosphomimetic",protein-binding microarray,"double-stranded DNA, one strand shown, in vitro","250 nM, 60-bp whole probe, together with: salmon DNA 0.4 mg/ml","baseline: random background probes, higher = stronger binding",log fluorescence,-0.158 z-score
GTTTGCCA,"Protein C-ets-1 (ETS1, Homo sapiens, UniProt P14921, residues 1-441, Y397A, full length assumed)",protein-binding microarray,"double-stranded DNA, one strand shown, in vitro","not given, k-mer, scored over probes, only values ≥0.25",higher = stronger binding,E-score,0.409
ATACAATC,"Histone acetyltransferase KAT6A, both winged helices, GST fusion (KAT6A, Homo sapiens, UniProt Q92794, residues 1-181)",protein binding microarray,"double-stranded DNA, one strand shown, in vitro","not given, 8-mer, flanks averaged, mean of 2 arrays, mostly near background","baseline: not given, higher = stronger binding",E-score,-0.0783
GCGGGCTA,"Sal-like protein 4, full length isoform A (SALL4, Homo sapiens, UniProt Q9UJQ4, residues 1-1053)",universal PBM,"double-stranded DNA, one strand shown, in vitro","600 nM, 8-mer, flanks averaged, mean of replicates",higher = stronger binding,E-score,-0.226

# A few entries again:
Substance,target,assay,test system,setting,scale,quantity,value
GCCTAGCACTCAACTTCTCTTTTGGCACTGTGCTAGGTCTTGATTCGCTTGACGCTGCTG,"IRF5 K96S/S451D/S453D/S456D/S462D full length, phosphomimetic",protein-binding microarray,"double-stranded DNA, one strand shown, in vitro","250 nM, 60-bp whole probe, together with: salmon DNA 0.4 mg/ml","baseline: random background probes, higher = stronger binding",log fluorescence,1.04 z-score
